Assay results pooled from the literature.
Lines come from different studies, so protocols differ. ± marks the error that the study gave. Values after ≈ are worked out from the molar mass of the structure shown.

Molecule	cell line	assay	system	conditions	scale	measurement	value
CN[C@@H]1C[C@H]2O[C@@](C)([C@@H]1OC)n1c3ccccc3c3c4c(c5c6ccccc6n2c5c31)C(=O)NC4	MCF7	annexin V/PI	–	2.5 µM, 24 h	–	early apoptotic cells	5.47%
O=c1c(O)c(-c2ccc(O)c(O)c2)oc2c1ccc1ccccc12	mouse cortical neurons	–	–	100 nM, added: glutamate	–	neuroprotection	86%
CC[C@H](C)[C@H](NC(=O)[C@H](CCCNC(=N)N)NC(=O)[C@H](CCCNC(=N)N)NC(=O)[C@@H]1CCCN1C(=O)[C@@H]1CCCN1C(=O)[C@H](CCCNC(=N)N)NC(=O)[C@@H]1CCCN1C(=O)[C@H](CCCNC(=N)N)NC(=O)[C@@H]1CCCN1C(=O)[C@H](CC(C)C)NC(=O)[C@H](Cc1ccc(O)cc1)NC(=O)[C@@H]1CCCN1C(=O)[C@@H]1CCCN1C(=O)[C@H](CCCCN)NC(=O)[C@H](CC(=O)O)NC(=O)[C@@H](N)C(C)C)C(=O)N[C@@H](Cc1ccc(O)cc1)C(=O)N[C@@H](CC(N)=O)C(=O)N[C@@H](CCCNC(=N)N)C(N)=O	Escherichia coli T7 Express LysY/I	SAMP-Dep deep sequencing	–	concentration not given, 7.2 h, 37 °C, intracellularly expressed mutants, added: IPTG	more negative = more active	growth-induction slope	-12 ± 2 M⁻¹ min⁻¹
leucinostatin A2	MDA-MB-231 resistant	sulforhodamine B	–	48 h	–	GI50	> 100 nM
astressin	rat hippocampal pyramidal neurons	antagonist, item: pCREB Ser133	–	100 nM, 30 min pretreatment, added: urocortin 40 nM, 15 min	–	UCN-induced CREB phosphorylation	inhibited
CNC(=O)c1ccc(N2C(=S)N(c3ccc(C#N)c(C(F)(F)F)c3)C(=O)[C@]23CCOC3)cc1F	LNCaP	PSA expression, antagonist	–	1 day, charcoal-stripped serum 3 days, added: 1 nM DHT	–	Ki	20 nM
COc1ccc(C(=O)O[C@H]2[C@H](O[C@@H]3[C@@H](OC(C)=O)[C@H](O[C@H]4C[C@H]5[C@@H]6CC=C7C[C@@H](O)CC[C@]7(C)[C@H]6CC[C@]5(C)[C@@]4(O)[C@H](C)C(=O)CCC(C)C)OC[C@@H]3O)OC[C@@H](O)[C@@H]2O)cc1	CHO NPC1-/- (M12)	–	–	concentration not given	relative to: wild-type CHO	antiproliferative activity change	no effect
COc1cc(C2=CCCCc3c2ccc(OC)c3OP(=O)(O)O)cc(OC)c1OC	SK-OV-3	cell growth or viability, SRB	–	48 h	–	GI50	7.72 nM
lead	U-251 overexpressing EphA2	cell viability	–	–	relative to: wild type over overexpressing	selectivity ratio	2.5 ± 2.44
CCN1C(=CC=CC=CC2=[N+](CCCCCC(=O)NCCN3C(=O)CC(SC[C@@H](NC(=O)[C@@H](CCCNC(=N)N)NC(=O)[C@@H](CCCNC(=N)N)NC(=O)[C@@H](CCCNC(=N)N)NC(=O)[C@@H](CCCNC(=N)N)NC(=O)[C@@H](CCCNC(=N)N)NC(=O)[C@@H](CCCNC(=N)N)NC(=O)[C@@H](CCCNC(=N)N)NC(=O)[C@@H](CCCNC(=N)N)NC(=O)[C@@H](CCCNC(=N)N)NC(=O)CNC(=O)[C@H](C)NC(=O)[C@H](CC(C)C)NC(=O)CNC(=O)[C@H](CC(C)C)NC(=O)[C@@H]4CCCN4C(=O)CCCCCNC(=O)[C@@H](CCC(=O)O)NC(=O)[C@@H](CCC(=O)O)NC(=O)[C@@H](CCC(=O)O)NC(=O)[C@@H](CCC(=O)O)NC(=O)[C@@H](CCC(=O)O)NC(=O)[C@@H](CCC(=O)O)NC(=O)[C@@H](CCC(=O)O)NC(=O)[C@@H](CCC(=O)O)NC(=O)CCC(=O)O)C(N)=O)C3=O)c3ccc(S(=O)(=O)[O-])cc3C2(C)C)C(C)(C)c2cc(S(=O)(=O)O)ccc21 (stereo partly drawn)	MDA-MB-231, 3D matrigel culture	confocal imaging	–	1.5 µM, 20 to 24 h, added: GM6001 100 µM	relative to: no inhibitor	cellular uptake	decreased
RRRRRRRRGGTTLFF	mouse CD4 T cells	–	peptide	concentration not given, 30 min preincubation, 96 h, added: anti-CD3/anti-CD28	relative to: control peptide	cell proliferation	decreased
COc1ccc(CCCOC(Cn2ccnc2)c2ccc(OC)cc2)cc1 (stereo not drawn)	U2OS	NAADP-evoked Ca2+ release	–	10 µM, 10 min pretreatment, added: NAADP 100 nM microinjected	relative to: NAADP alone	Ca2+ transient amplitude	12.4 ± 8.9%
leucinostatin B2	SUM185PE	sulforhodamine B	–	48 h, LAR subtype TNBC	–	GI50	2.2 ± 0.7 nM
N.N.[Cl][Pt][Cl]	human PBMC	cytotoxicity	–	–	relative to: PBMC over Jurkat toxicity	selectivity ratio	70
CC(C)c1ccc2c(c1)CC[C@H]1[C@](C)(CN)CCC[C@]21C	WM-115	cell growth or viability, MTS	–	24 h	–	IC50	4790 nM
CC(C)C(=O)O[C@H]1[C@H](C)OC(=O)[C@@H](NC(=O)c2cccc(NC=O)c2O)[C@@H](C)OC(=O)[C@@H]1Cc1ccccc1	mouse splenocytes	IL-5 production, ELISA	–	0.005 µM, added: ovalbumin	relative to: OVA-stimulated control	inhibition	> 80%
C/C1=C/C(=O)O[C@@H]2C[C@@H](CC[C@H](C)/C=C\C=C\CC1)O[C@@](O)([C@@H]1CSC(=O)N1)C2	LNCaP expressing wild-type Abi1	flow cytometry	–	0.2 µM, 2 h, added: Alexa Fluor hydrazide 25 µM, no PDGF	–	macropinocytic uptake	decreased
N.N.[Cl][Pt][Cl]	PC-3	trypan blue	–	48 h	–	GI50	8000 ± 2500 nM
CO[C@@H]1C[C@@H](C[C@H]2CC[C@H](C)[C@H]([C@@H](C)C(=O)O)O2)O[C@]2(O[C@](C)([C@H]3CC[C@@](C)([C@@H]4O[C@@H]([C@H]5O[C@@](O)(CO)[C@H](C)C[C@@H]5C)C[C@@H]4C)O3)C[C@H]2C)[C@@H]1C	LK sheep red cells	–	–	0.03 µM, pH 7.4, 37 °C, unit not given, added: high-K medium	relative to: untreated cells	K+ content change	21
leucinostatin F	SUM185PE	sulforhodamine B	–	48 h, LAR subtype TNBC	–	GI50	2 ± 0.2 nM

Molecule	cell line	assay	system	conditions	scale	measurement	value
NC12CC3CC(CC(C3)C1)C2	dendritic cells	flow cytometry	–	10 µg/mL, 24 h	relative to: untreated cells	IL-4 expression	increased
C=CCN=C=S	rat DRG neurons	intracellular calcium rise	–	50 µM	–	responding neurons	24.4%
CC1(C)C(=O)N(CCN2CCC(C(=O)c3ccc(F)cc3)CC2)c2ccccc21.Cl	U2OS	NAADP-evoked Ca2+ release	–	10 µM, 10 min pretreatment, added: NAADP 100 nM microinjected	relative to: NAADP alone	Ca2+ transient amplitude	42.9 ± 5.1%
NNC(=O)Cn1c2ccccc2c2cn[nH]c(=O)c21	MCF7	RT-PCR, item: P53	–	5 µM, 48 h, normalised to β-actin	relative to: untreated	fold change	5.75
CN(C)CCCn1cc(C2=C(c3c[nH]c4ccccc34)C(=O)NC2=O)c2ccccc21	rat lamina I NK1R neurons	–	spinal cord slices	concentration not given, added: substance P	–	firing duration	4.33 ± 0.82 min
amyloid beta-42 Met35-sulfone	rat primary hippocampal neurons	MTT	–	10 µM, 48 h	relative to: medium control	viability decrease	43 ± 2%
CC(=O)C1=C(O)[C@@H]2[C@H]3c4c[nH]c5cccc(c45)C[C@H]3C(C)(C)N2C1=O	SH-SY5Y cells	–	–	10 µM, calcium store depletion, added: human prorenin 4 nM	–	intracellular calcium increase	no effect
leucinostatin D	SUM185PE	sulforhodamine B	–	48 h, LAR subtype TNBC	–	GI50	1.4 ± 0.2 nM
C/C=C1\NC(=O)[C@H]2CSSCC/C=C/[C@H](CC(=O)N[C@H](C(C)C)C(=O)N2)OC(=O)[C@H](C(C)C)NC1=O	SU-DHL10	acetyl-lysine IP mass spectrometry, item: RBBP4/RBBP7 acetylation	–	concentration not given	relative to: untreated	acetylated RBBP4 level	2 fold
O=C1C=Cc2ccccc2C1=O	A-431	PTP activity, single-cell capillary electrophoresis	–	50 µM, 60 s, median	–	remaining phosphorylation	41%
CNC(=O)c1ccccc1Oc1nc(Nc2cc(OC)c(OC)c(OC)c2)ncc1Br	HEK293T overexpressing ULK1 and Vps34	item: Vps34 Ser249 phosphorylation	–	1 h	–	inhibitory concentration	~5 µM
COC(=O)C1=CO[C@@H](O)[C@@H]2C(CO)=CC[C@H]12	SK-N-SH	neuroprotection, MTT	–	0.3 µM, 24 h, added: 250 µM H2O2	–	viability	57.8 ± 0.7%
CC(C)[C@@H]1NC(=O)[C@H](CCCCN)NC(=O)[C@@H](Cc2c[nH]c3ccccc23)NC(=O)[C@H](Cc2ccc(O)cc2)NC(=O)[C@@H](NC(=O)[C@H](N)Cc2ccc3ccccc3c2)CSSC[C@@H](C(=O)N[C@H](C(N)=O)[C@@H](C)O)NC1=O	NCI-H720	ELISA	–	IC50 concentration, 30 min	relative to: unstimulated cells	ERK1/2 phosphorylation	182 ± 35%
C[C@H]1O[C@@H](O[C@H]2[C@@H](O)C[C@H](O[C@H]3[C@@H](O)C[C@H](O[C@H]4CC[C@@]5(C)[C@H](CC[C@@H]6[C@@H]5C[C@@H](O)[C@]5(C)[C@@H](C7=CC(=O)OC7)CC[C@]65O)C4)O[C@@H]3C)O[C@@H]2C)C[C@H](O)[C@@H]1O	NIH3T3 in HEY/NIH microtissues	fibroblast toxicity	–	168 h, chronic toxicity, unit not given	relative to: AC50 ATP over AC50 NanoLUC, day 7	therapeutic window	0.449
CC(=O)SCC(Cc1ccccc1)C(=O)NCC(=O)OCc1ccccc1 (stereo not drawn)	U2OS	NAADP-evoked Ca2+ release	–	10 µM, 10 min pretreatment, added: NAADP 100 nM microinjected	relative to: NAADP alone	Ca2+ transient amplitude	16.6 ± 10%
CCCCCCCCOC(=O)c1ccccc1C(=O)OCCCCCCCC	mES-D3 cell	cardiomyocyte differentiation, RT-PCR, item: MHC	–	240 h	–	ID50	60.1 ± 5.39 mg/L (≈ 154 µM)
CN1C(=CC=CC=CC2=[N+](CCCCCC(=O)NCCCC[C@H](NC(=O)[C@H](CCCCNC(=O)COCCOCCOCCNC(=O)[C@H](Cc3ccccc3)NC(=O)[C@H](CCCNC(=N)N)NC(=O)[C@@H]3CCCN3C(=O)[C@H](CC(N)=O)NC(=O)[C@@H]3CCCN3C(=O)[C@H](CO)NC(=O)[C@@H](N)CCCCN)NC(=O)COCCOCCOCCNC(=O)[C@H](CCC(=O)O)NC(=O)[C@H](CCCNC(=N)N)NC(=O)[C@@H]3CCCN3C(=O)[C@H](CCCCN)NC(=O)[C@H](Cc3c[nH]cn3)NC(=O)[C@H](CCCNC(=N)N)NC(=O)[C@@H](N)CCC(N)=O)C(N)=O)c3ccc4ccccc4c3C2(C)C)C(C)(C)c2c1ccc1ccccc21	OE33	flow cytometry	–	1 µM, 4 °C	–	association rate constant	0.22 min⁻¹
Cc1nc(N=Nc2ccc(S(=O)(=O)[O-])cc2S(=O)(=O)[O-])c(COP(=O)([O-])[O-])c(C=O)c1O.[Na+].[Na+].[Na+].[Na+]	U2OS	NAADP-evoked Ca2+ release	–	10 µM, 10 min pretreatment, added: NAADP 100 nM microinjected	relative to: NAADP alone	Ca2+ transient amplitude	24.2 ± 2.1%
[Met(O)35]Aβ42	rat primary hippocampal neurons	LDH release	–	10 µM, 48 h	relative to: medium control	viability decrease	16 ± 2%

A few entries again:
Molecule	cell line	assay	system	conditions	scale	measurement	value
CC(C)[C@@H]1NC(=O)[C@H](CCCCN)NC(=O)[C@@H](Cc2c[nH]c3ccccc23)NC(=O)[C@H](Cc2ccc(O)cc2)NC(=O)[C@@H](NC(=O)[C@H](N)Cc2ccc3ccccc3c2)CSSC[C@@H](C(=O)N[C@H](C(N)=O)[C@@H](C)O)NC1=O	NCI-H720	ELISA	–	IC50 concentration, 30 min	relative to: unstimulated cells	ERK1/2 phosphorylation	182 ± 35%
CNC(=O)c1ccccc1Oc1nc(Nc2cc(OC)c(OC)c(OC)c2)ncc1Br	HEK293T overexpressing ULK1 and Vps34	item: Vps34 Ser249 phosphorylation	–	1 h	–	inhibitory concentration	~5 µM
